Published values gathered from unrelated publications.
A part holds a random share of what one study measured.

Study 1
Target: Prothrombin, mature alpha-thrombin (F2, Homo sapiens, UniProt P00734)
Method: aptamer microarray, sandwich
Molecule type: DNA with 2'F-ANA
Medium: in vitro
Tested at: 200 nM
Setting: whole 15-mer aptamer, many near background
Added: Cy3 exosite-II aptamer, 400 nM
Reading: higher = stronger binding
Endpoint: mean fluorescence intensity
Strand: GGTTGGTGTGGTTGG
Modification = 2'F-ANA at 2 3 6 8 9 10 11 12 13 14; result = 232 a.u.
Modification = 2'F-ANA at 1 2 3 4 5 6 8 11 12 13 15; result = 71.3 a.u.
Modification = 2'F-ANA at 1 2 6 7 10 11 13; result = 47.5 a.u.
Modification = 2'F-ANA at 2 3 5 6 7 8 9; result = 166 a.u.
Modification = 2'F-ANA at 1 2 3 6 7 8 9 11 15; result = 183 a.u.
Modification = 2'F-ANA at 1 3 7 8 10 11; result = 86.1 a.u.
Modification = 2'F-ANA at 1 2 4 5 6 8 9 11; result = 54.4 a.u.
Modification = 2'F-ANA at 4 5 7 10 11 13 14; result = 44 a.u.
Modification = 2'F-ANA at 1 2 3 5 6 7 8 11 12; result = 124 a.u.
Modification = 2'F-ANA at 1 2 3 4 8 10 13 15; result = 52.2 a.u.
Modification = 2'F-ANA at 2 3 5 6 9 12 13 14 15; result = 51.6 a.u.
Modification = 2'F-ANA at 3 4 11 13 15; result = 513 a.u.
Modification = 2'F-ANA at 2 3 5 7 9 11 14 15; result = 50.4 a.u.
Modification = 2'F-ANA at 1 3 5 6 9 10 14; result = 45.9 a.u.
Modification = 2'F-ANA at 2 4 5 6 14 15; result = 46.7 a.u.
Modification = 2'F-ANA at 3 5 7 9 11 14 15; result = 52.1 a.u.
Modification = 2'F-ANA at 7 9 12 14 15; result = 234 a.u.
Modification = 2'F-ANA at 3 4 8 9 11 12 15; result = 792 a.u.
Modification = 2'F-ANA at 3 5 6 7 12 15; result = 214 a.u.
Modification = 2'F-ANA at 1 2 5 6 7 9 10 13; result = 65.3 a.u.
Modification = 2'F-ANA at 1 3 5 6 7 8 9 10 12 13 14 15; result = 48.9 a.u.
Modification = 2'F-ANA at 5 6 7 11 12 13 14 15; result = 53 a.u.
Modification = 2'F-ANA at 1 2 3 6 8 9 10 14; result = 79.3 a.u.
Modification = 2'F-ANA at 4 6 7 8 9 10 11 12 15; result = 95.5 a.u.
Modification = 2'F-ANA at 1 4 5 12; result = 119 a.u.

Study 2
Target: Histone acetyltransferase KAT6A, both winged helices, GST fusion (KAT6A, Homo sapiens, UniProt Q92794, residues 1-181)
Method: protein binding microarray
Molecule type: double-stranded DNA, one strand shown
Medium: in vitro
Tested at: not given
Setting: 8-mer, flanks averaged, mean of 2 arrays, mostly near background
Baseline: not given
Reading: higher = stronger binding
Endpoint: E-score
Target sequence (chain): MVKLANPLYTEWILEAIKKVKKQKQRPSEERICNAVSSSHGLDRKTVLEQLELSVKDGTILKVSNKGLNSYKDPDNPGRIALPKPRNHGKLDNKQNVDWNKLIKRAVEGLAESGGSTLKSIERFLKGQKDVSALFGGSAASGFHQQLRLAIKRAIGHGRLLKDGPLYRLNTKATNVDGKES
Strand = ACGCGAAT; result = 0.104
Strand = ACCGAGTA; result = 0.131
Strand = ATGCGAAT; result = 0.157
Strand = CCACTCAC; result = -0.143
Strand = CCAAAATA; result = -0.155
Strand = AAGCATAA; result = -0.121
Strand = AACACCCA; result = -0.185
Strand = ACTTTTGA; result = 0.0346
Strand = CATACTAC; result = -0.0416
Strand = AATCTTAA; result = -0.13
Strand = AATTTAGC; result = -0.0825
Strand = AGGTGGCG; result = -0.0327
Strand = CCGAAGAC; result = -0.0931
Strand = CCCAAAAG; result = -0.0858
Strand = ATTACCGA; result = 0.0629
Strand = ACGGAAAC; result = 0.345
Strand = CGGCGCGC; result = 0.401
Strand = GACGCGCC; result = 0.297
Strand = AATGCGAT; result = 0.0274

Study 3
Target: RNA binding protein fox-1 homolog 2, RRM domain, GST-SBP tag (RBFOX2, Homo sapiens, UniProt O43251-10, residues 100-194)
Method: RNA Bind-n-Seq
Molecule type: RNA
Medium: in vitro
Tested at: 365 nM
Setting: natural RNA segment, single round, ends assumed
Baseline: no-protein control
Reading: higher = stronger binding
Endpoint: RBNS enrichment (R)
Residues (chain): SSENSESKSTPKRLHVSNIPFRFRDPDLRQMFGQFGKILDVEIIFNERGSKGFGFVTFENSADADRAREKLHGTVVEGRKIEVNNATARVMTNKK
Strand = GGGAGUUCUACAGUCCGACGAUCCCCUAACCUGUCUGUCUCCGUGGAUGCAUCCUAACCCUAAGGAAAAUUCCCCAGGCUGUGAUCUACCCUAGAGAAGGCUCGCUCCCUGCCUACUGGCUCACAAAUGAGGAUGGAAUUCUCGGGUGCCAA; result = 0.378
Strand = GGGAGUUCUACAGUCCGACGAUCGAACUGCUCAACACACAGAUCUCCUACUCCAUCCAGUCCUGAGGAGCCUUAGGAUGCAGCAUGCCUUCAGGAGACACUGCUGGACCUCAGCAUUCCCUUGAUAUCAGUCCUGGAAUUCUCGGGUGCCAA; result = 5.29
Strand = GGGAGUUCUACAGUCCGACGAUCUGCUGUUCUUCUAUGUCGUCCUCUUGAGAAAGCUGCAAGGGUUUACCUCUUUCCUUGACUCUCUUCUUAUUUGUAAUACUCUGAGUUCUGCAUCUGUCUCAGACAGGAGCUGGAAUUCUCGGGUGCCAA; result = 0.335
Strand = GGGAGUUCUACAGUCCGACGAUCAAUGAAUUUGUACUUUGAAAGGAAUGAUAUUGACACUAAAAUUUUAAACAUUUAAAUUUUUUCAUAAUCUUUCAUAAAGAAGUUUAAUAAUAGGUAUAUUAACUGAAUUUUGGAAUUCUCGGGUGCCAA; result = 0.663
Strand = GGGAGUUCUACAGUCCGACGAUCUAUUGUUUGAGAAUAAUGUCUUUUUAUACCAGGAAAAUAGUUAUCCUGAAUGACGUUGAAAACUCCCCCUCCCCUUUAUUUUUUUUUAAUCAAUACAUGUGAAAGUAACAUGGAAUUCUCGGGUGCCAA; result = 1.3
Strand = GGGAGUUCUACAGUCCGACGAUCUUCUGUAAGUUUUUGAGAGGCAAUUGGCAAUUUAGGAGGCAGCAGGGUCUGUUUUGGUCAAAUCUUGAAUUUCGUUGUUGCACUCUAGUGACUGAUCUUUGGGAAUGUCUUGGAAUUCUCGGGUGCCAA; result = 0.64
Strand = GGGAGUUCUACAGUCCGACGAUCUCCCGUUCUCUCAUGCCUUCGCCCUCCGCCCUCCGAGAUCCCUGAAGGAGGAAAGAGAUAAAGGUUAAAGUCCCAGAUCUGUGCCCUCCAGUAGGUUGGGCUGCUCAUUUUGGAAUUCUCGGGUGCCAA; result = 0.386
Strand = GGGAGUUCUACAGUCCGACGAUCUCCAUUUAUCCACAGGAAAGUGUUAUUUUUCAAGGAAGGUUCAUGUAGAGAAAAGCACACUUGUAGGAUAAGUGAAAUGGAUACUACAUCUUUAAACAGUAUUUCAUUGCUGGAAUUCUCGGGUGCCAA; result = 0.551
Strand = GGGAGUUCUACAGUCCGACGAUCAGGAAAAAGCACAGCCUCGAAUGGAGGCAGCCUAAACUCUUGUCUGUCCUCUUCAUGGUGUCUCUUCCGUGUUUUGCUGAGCUGUUCUCAGGCACCCCCUCACUGCUCCCUGGAAUUCUCGGGUGCCAA; result = 0.456
Strand = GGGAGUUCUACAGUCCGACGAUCGAGUAGUGCAUUUAAUUAUUUUUUAAAAAACUUUUUAAGUACUUGAAUUUUAUAUCAGGAAAACAAAGUUGUUGAGCCUUGCUUCUUCCGUUUUGCCCUUUGUCUCGCUCUGGAAUUCUCGGGUGCCAA; result = 0.467
Strand = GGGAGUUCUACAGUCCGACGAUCGCUUCCUUGUUUAUGAAGUGAGGUGGUUUCUAGUGCUUUUCCAGGUUCUGCCUUAGUUAAAAACUAAGGCAGGUAAACAGAGAUGAAUCCUUGUGAAAAGCAUCUAAGGGUGGAAUUCUCGGGUGCCAA; result = 0.236
Strand = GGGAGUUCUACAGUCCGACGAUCCGGCCAGGGCCCGCGGGGGGCACCACCUGUGGACAGCCCUCCUGUCCCCAAGCUUUCAGGCAGGCACUGAAACGCACCGAACUUCCACGCUCUGCUGGUCAGUGGCGGCUUGGAAUUCUCGGGUGCCAA; result = 0.148

Study 4
Target: Interferon regulatory factor 3, full length, phosphomimetic (IRF3, Homo sapiens, UniProt Q14653, residues 1-427, S386D/S396D/S398D/S402D/T404D/S405D)
UniProt Q14653, sequence (whole entry, unmodified, looked up): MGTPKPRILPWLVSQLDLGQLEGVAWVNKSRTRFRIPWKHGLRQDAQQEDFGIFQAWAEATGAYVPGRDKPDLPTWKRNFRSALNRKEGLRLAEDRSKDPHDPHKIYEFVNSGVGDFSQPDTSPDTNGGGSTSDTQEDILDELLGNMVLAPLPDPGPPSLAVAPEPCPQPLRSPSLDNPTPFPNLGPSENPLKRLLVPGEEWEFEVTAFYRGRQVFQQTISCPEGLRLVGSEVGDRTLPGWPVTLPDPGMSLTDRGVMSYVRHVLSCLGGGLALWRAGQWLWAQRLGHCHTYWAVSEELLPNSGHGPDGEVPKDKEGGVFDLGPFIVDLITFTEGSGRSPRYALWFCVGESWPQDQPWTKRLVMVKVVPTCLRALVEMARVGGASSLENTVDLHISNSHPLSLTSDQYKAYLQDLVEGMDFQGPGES
Method: protein-binding microarray
Molecule type: double-stranded DNA, one strand shown
Medium: in vitro
Tested at: 2540 nM top
Setting: 60-bp whole probe
Added: salmon DNA 0.4 mg/ml
Baseline: random background probes
Reading: higher = stronger binding
Endpoint: fitted relative affinity
Constant ends, left off below: GCCTAGCAC … GTCTTGATTCGCTTGACGCTGCTG
Strand = GACGATATCGGGTATAGAGACGTGCTA; result = 0.0899 z-score
Strand = TTAGGTTTCGGTAACGGTTAGTGCTAG; result = 5.11 z-score
Strand = GACGATTTGGGGTATCGAGACGTGCTA; result = 0.0257 z-score
Strand = TTAGATATCGGGACTGTATTAGTGCTA; result = 0.0986 z-score
Strand = GACCGACTGCTTTTCCTGACGTGCTAG; result = 0.195 z-score
Strand = GACGGTATCGGTTTCGGGAGGTGCTAG; result = 6.86 z-score
Strand = CTAGGTATCGGGTTTCGGTTAGTGCTA; result = 3.83 z-score
Strand = CCCACCTCTCACGGGCTTGTGTGCTAG; result = 0.551 z-score
Strand = GACCGTTCCCTTTTCCTGACGTGCTAG; result = 5.22 z-score
Strand = GGCTGTTTGGTCCTGATCCTGTGCTAG; result = -0.0283 z-score
Strand = GTTTTTTGGTTTCTGGTTTAGTGCTAG; result = 3.86 z-score
Strand = GACGGACTGCTTTTCCTGATGTGCTAG; result = -0.184 z-score
Strand = TTAGATATCGGTTTCGGTTAGTGCTAG; result = 6.37 z-score
Strand = TCATCTCCCCCATCTTGTACTGTGCTA; result = 1.42 z-score
Strand = GACGGTTTCGGTTTCGGGCCGTGCTAG; result = 9.9 z-score
Strand = GACGGTCTCGTTTTCCTGACGTGCTAG; result = 2.38 z-score
Strand = TTAGATTTCAGTTCCCATTAGTGCTAG; result = 3.8 z-score
Strand = TCAGCTTTACTGATGGCACTGTGCTAG; result = -0.0633 z-score
Strand = TTAGGTATCGACAATGGGTTAGTGCTA; result = -0.129 z-score
Strand = TCAAAACTAAGTTTATTACTGTGCTAG; result = -0.0503 z-score
Strand = CAGTAGATGGCGCCTGAGAGGTGCTAG; result = -0.752 z-score
Strand = TCTCGCTTCATCTCCCAGACTGTGCTA; result = 0.523 z-score
Strand = ACTAATTTCCATTTTCTAAAGTGCTAG; result = 6.39 z-score

Study 5
Target: Sal-like protein 4, full length isoform A (SALL4, Homo sapiens, UniProt Q9UJQ4, residues 1-1053)
UniProt Q9UJQ4, sequence (whole entry, looked up): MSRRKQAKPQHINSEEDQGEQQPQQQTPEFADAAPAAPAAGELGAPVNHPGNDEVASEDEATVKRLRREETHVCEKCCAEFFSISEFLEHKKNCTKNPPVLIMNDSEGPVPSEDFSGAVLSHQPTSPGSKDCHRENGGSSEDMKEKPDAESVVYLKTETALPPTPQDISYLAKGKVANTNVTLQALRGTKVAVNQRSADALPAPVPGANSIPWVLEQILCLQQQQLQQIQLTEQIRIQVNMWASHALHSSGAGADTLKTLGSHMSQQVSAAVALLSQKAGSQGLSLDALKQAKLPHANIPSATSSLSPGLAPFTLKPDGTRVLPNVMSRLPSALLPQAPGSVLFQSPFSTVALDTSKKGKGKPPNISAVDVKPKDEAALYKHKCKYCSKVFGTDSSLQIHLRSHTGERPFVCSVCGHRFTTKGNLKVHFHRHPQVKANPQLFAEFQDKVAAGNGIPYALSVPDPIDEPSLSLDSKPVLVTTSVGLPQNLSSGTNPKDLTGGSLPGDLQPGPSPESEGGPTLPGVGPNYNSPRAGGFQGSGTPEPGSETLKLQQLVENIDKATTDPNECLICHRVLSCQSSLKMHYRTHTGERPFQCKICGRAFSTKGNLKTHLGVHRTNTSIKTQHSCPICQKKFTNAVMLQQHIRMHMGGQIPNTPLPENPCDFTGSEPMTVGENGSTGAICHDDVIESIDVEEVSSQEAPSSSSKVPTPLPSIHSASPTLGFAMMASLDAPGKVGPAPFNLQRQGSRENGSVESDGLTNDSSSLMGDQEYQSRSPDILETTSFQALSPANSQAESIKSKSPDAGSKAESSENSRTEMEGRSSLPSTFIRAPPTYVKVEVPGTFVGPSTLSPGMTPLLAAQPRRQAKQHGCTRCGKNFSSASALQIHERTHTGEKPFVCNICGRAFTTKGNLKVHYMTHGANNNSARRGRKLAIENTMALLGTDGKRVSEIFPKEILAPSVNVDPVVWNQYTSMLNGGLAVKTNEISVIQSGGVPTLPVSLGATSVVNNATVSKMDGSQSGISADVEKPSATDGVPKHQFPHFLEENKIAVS
Method: universal PBM
Molecule type: double-stranded DNA, one strand shown
Medium: in vitro
Tested at: 600 nM
Setting: 8-mer, flanks averaged, mean of replicates
Reading: higher = stronger binding
Endpoint: E-score
Strand = AGGCGGCC; result = -0.269
Strand = CCACAATC; result = -0.0639
Strand = ACACCCAC; result = -0.21
Strand = ATTGATAA; result = 0.3
Strand = GTTATCCA; result = 0.159
Strand = GAAGAGCC; result = -0.268
Strand = CCCCAACC; result = -0.26
Strand = AGTAGCCA; result = -0.131
Strand = TACGTCAA; result = 0.138
Strand = AATTGAAA; result = 0.286
Strand = AAGGAAGT; result = 0.0538
Strand = GACTTCTA; result = -0.0067
Strand = AAATACTT; result = 0.3
Strand = CCGTACCA; result = -0.146
Strand = AAATCAGG; result = 0.0744
Strand = AACCTGTG; result = -0.0924
Strand = GACGGCTC; result = -0.289
Strand = AAGAGTCG; result = -0.0257
Strand = TAATCACA; result = 0.247

Repeated from above (study 5):
Strand = GACGGCTC; result = -0.289
Strand = AATTGAAA; result = 0.286
Strand = CCGTACCA; result = -0.146
Strand = TACGTCAA; result = 0.138
Strand = GTTATCCA; result = 0.159
Strand = AAATACTT; result = 0.3
Strand = AAGGAAGT; result = 0.0538
Strand = GACTTCTA; result = -0.0067
